Experimental data gathered from unrelated publications.
Every numbered part comes from another study and shows a few of its results, in no order. Changes are numbered by the printed parent chain.

Study 1
Target: Ras GTPase-activating protein-binding protein 1, C-terminal RGG region (G3BP1, Homo sapiens, UniProt Q13283)
Sequence of UniProt Q13283 (whole entry, looked up): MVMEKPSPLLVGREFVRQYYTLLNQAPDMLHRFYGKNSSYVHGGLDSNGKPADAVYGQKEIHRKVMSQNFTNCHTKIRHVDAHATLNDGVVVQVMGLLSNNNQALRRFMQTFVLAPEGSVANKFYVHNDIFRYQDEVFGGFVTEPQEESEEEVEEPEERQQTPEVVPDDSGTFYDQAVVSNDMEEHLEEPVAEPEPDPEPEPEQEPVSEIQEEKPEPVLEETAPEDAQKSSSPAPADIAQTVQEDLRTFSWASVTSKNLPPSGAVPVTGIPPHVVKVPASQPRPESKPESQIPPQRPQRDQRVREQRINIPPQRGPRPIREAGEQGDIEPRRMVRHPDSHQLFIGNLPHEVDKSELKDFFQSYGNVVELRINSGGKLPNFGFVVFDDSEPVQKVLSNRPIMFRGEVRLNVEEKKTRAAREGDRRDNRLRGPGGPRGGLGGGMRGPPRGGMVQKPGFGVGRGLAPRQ
Technique: RNA Bind-n-Seq
Molecule type: RNA
Matrix: in vitro
Tested at: 1 µM
Setting: whole 134-nt RNA, ends assumed
Together with: 150 mM KCl
Reference: input library
Reading: higher = stronger binding
Endpoint: log2 enrichment
All sequences stand within: GGGAGUUCUACAGUCCGACGAUC … UGGAAUUCUCGGGUGUCAAGG
ACCAUGCAGGUGGGCAUCUUUGGGAAGUGGGGCAAGGGGGGGAUAGGGAGGGGGGUAACACUUUGGGAACAGGAGGUCCCAGGUCGUUUC: 2.18
CCUGUGCUACACAUCGUAUGUACCGAAUCGGUUUUUUUGGGGUUUUUUUGGUUUUUUUGGGAAAGUAUUAUGUUACGCCGUUCGGAUCUG: -1.37
CACAGACAACACGCACCCACACAGACACAGAGGGAAGGGGUUGGGAAAAGGACAGGGUGCACAGCAGGGCGGGGUAGGACCCCAGCCCCU: -0.0928
CAAGUCCUGUGCUACACAUCGUAUGUACCGAAUCGGGCCCGGGCCCGGGCCCGGGAAAGUAUUAUGUUACGCCGUUCGGAUCUGCACUUC: -0.707
AAGUCCUGUGCUACACAUCGUAUGUACCGAAUCAAACCCAAACCCCCAAACCCAAAAAAGUAUUAUGUUACGCCGUUCGGAUCUGCACUU: -0.955
UGGCUUUCACCCCCAACCAGUGACCAAAGACUUGACCACUCAAAGUCCAGCUCCCCAGAACACUGCUCGACAUGGACACCGGUGUGAUUG: 0.0231
UCCUGUGCUACACAUCGUAUGUACCGAAUCGGGGCCCCCGGGCCCCCGGGGCCCCCGGGGAAAGUAUUAUGUUACGCCGUUCGGAUCUGC: -1.69
AAGUCCUGUGCUACACAUCGUAUGUACCGAAUCGGGGAAAAAGGGGAGGGGAGGGGAAAGUAUUAUGUUACGCCGUUCGGAUCUGCACUU: 2.16

Study 2
Target: RING finger protein unkempt homolog, zinc fingers 1-6, GST-SBP tag (UNK, Homo sapiens, UniProt Q9C0B0, residues 30-357)
Sequence of UniProt Q9C0B0 (30-357, looked up): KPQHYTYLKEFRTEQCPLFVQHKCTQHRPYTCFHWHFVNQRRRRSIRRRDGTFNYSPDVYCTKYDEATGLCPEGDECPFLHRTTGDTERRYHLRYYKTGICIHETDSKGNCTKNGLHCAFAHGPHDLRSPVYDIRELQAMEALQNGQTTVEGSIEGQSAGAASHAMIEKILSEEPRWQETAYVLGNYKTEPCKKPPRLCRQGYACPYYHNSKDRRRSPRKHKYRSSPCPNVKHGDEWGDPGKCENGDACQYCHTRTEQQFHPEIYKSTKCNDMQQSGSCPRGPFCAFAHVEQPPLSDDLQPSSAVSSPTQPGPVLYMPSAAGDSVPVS
Technique: RNA Bind-n-Seq
Molecule type: RNA
Matrix: in vitro
Tested at: not given
Setting: RNA with constant flanks, human and mouse sites, ends assumed
Reference: input RNA pool
Reading: higher = stronger binding
Endpoint: bound/input enrichment
All sequences stand within: GGGAGUUCUACAGUCCGACGAUC … CAACAGAGGAUUGAGCAUCA
GUAAGAUUCAUCUCCCGGUUAUGCCCUCCUGGAAAGCCCUUCCCAACAUAUUAUGUUGUCCAUAGAGGGAAAAAUGAGCAAAGACAGAUGGCUUAACUCUGGUGUGUGACUAAGAUAUAG: 0.494 ratio
CGACUCUCACUCACCUCCAGCGACUCACCCUGAUUUCCAGUUGCACUGGUUUUUUUUUUUUUUUUAAUAUAAUAAAAACUUAUCUGGCAUCAGCCUCAUACCUAAAGCUCCUGCCUGCAU: 0.823 ratio
GAAGACACCUGCAUCAUCCGCAUCAGUGUAGAAGACAACAAUGGCAACAUGUACAAGAGCAUCAUGCUGACAAGCCAGGAUAAGACCCCCGCUGUGAUCCAGAGAGCGAUGUCGAAGCAC: 0.111 ratio
CCUGCAAGUUUGCAGAGAGGUUUACAUCGCCAAGCUUUGGCCUUUCAUUUCUGCAAAGCCCAGGACUCUGAUACUUUGUGUGUUGGAGGGUUUAUUAGAGGUCUAGUAGCCCAGAUCUGC: 0.087 ratio
GGAAGACCUUUCAACUCCAUUCAGAAGACAACAUUUAGUAAGGAGGAUGGCGGAGGUUACUAGUAAUUUUCAGAUGUCUUGGGCUUUUUCUGCCAACAAAACCCAAAAUCAAAUUAGAGU: 4.67 ratio
UUCUUGAAGGCUAUUGGGUAUCUUAUUCCUCUUAUGGAUGCAGAAUAUGCCAACUACUAUACUAGAGAAGUGAUGUUAAUCCUUAUUCGAGAAUUCCAGUCUCCUGAUGAGGAAAUGAAA: 0.404 ratio
AUUAUUCAGGUUGACAAAGCUUAUGACUACCUCAUUCAAAAUACAUCAUUUGCUAACAGAUUAGGUUUUACAGUUACUGUUGGAAAUAACCGUGGUAUCUACCUCCGAGAUCCUGUCCAG: 0.417 ratio
CCCUGUGUGUAUAAUGUAUCUCCUUUCAGAACAGGAAUGUGCCUCCUAAUGUUUACUGUUACCCUGCUGUCUCUGUAUGUCCAGUCGGUGGAACACUGUAAUGACUUGAGAAUAAACUGC: 0.264 ratio

Other studies, line by line
CCND1: CCND1, cyclin fold, Cln2 fusion (human)
P1: viral docking peptide; KGVKRKLFAEDSS; partner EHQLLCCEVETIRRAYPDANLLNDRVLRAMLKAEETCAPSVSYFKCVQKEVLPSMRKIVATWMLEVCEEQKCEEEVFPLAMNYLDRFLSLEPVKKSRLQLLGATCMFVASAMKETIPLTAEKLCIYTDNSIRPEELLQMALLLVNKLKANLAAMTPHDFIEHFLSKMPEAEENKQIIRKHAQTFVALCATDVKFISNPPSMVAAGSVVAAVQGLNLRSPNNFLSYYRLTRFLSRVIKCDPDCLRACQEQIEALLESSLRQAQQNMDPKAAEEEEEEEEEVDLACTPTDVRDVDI
P2: PafA, mature enzyme, eGFP fusion (Elizabethkingia meningoseptica, UniProt Q9KJX5); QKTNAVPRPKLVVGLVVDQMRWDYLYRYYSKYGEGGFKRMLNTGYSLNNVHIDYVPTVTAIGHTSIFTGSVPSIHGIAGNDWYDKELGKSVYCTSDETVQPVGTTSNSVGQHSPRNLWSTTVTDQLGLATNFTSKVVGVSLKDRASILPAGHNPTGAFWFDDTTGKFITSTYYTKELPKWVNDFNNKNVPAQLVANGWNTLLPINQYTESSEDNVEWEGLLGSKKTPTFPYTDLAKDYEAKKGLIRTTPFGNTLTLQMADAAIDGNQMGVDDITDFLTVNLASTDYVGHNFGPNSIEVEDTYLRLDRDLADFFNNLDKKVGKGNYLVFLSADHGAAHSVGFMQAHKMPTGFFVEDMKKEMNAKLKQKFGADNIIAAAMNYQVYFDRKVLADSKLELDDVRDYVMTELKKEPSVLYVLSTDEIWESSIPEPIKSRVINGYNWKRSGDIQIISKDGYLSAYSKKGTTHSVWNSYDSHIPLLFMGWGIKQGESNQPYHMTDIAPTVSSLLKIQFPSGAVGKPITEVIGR
P1 K4P  normalised enrichment score (CCND1; yeast growth competition, sequencing; yeast; strong parent motif; reference: not given, higher = stronger binding): 0.639
P2 I485G  phosphate dissociation constant (inorganic phosphate, free oxyanion; microfluidic competitive inhibition; in vitro, cell-free expressed; not given, derived from inhibition constants, unchanged parent 615000 nM; lower = stronger binding): 645 µM
P1 K4N  normalised enrichment score (CCND1; yeast growth competition, sequencing; yeast; strong parent motif; reference: not given, higher = stronger binding): 0.959

For quick reference, copied from above (study 2):
CGACUCUCACUCACCUCCAGCGACUCACCCUGAUUUCCAGUUGCACUGGUUUUUUUUUUUUUUUUAAUAUAAUAAAAACUUAUCUGGCAUCAGCCUCAUACCUAAAGCUCCUGCCUGCAU: 0.823 ratio
GAAGACACCUGCAUCAUCCGCAUCAGUGUAGAAGACAACAAUGGCAACAUGUACAAGAGCAUCAUGCUGACAAGCCAGGAUAAGACCCCCGCUGUGAUCCAGAGAGCGAUGUCGAAGCAC: 0.111 ratio
